Results collected from several papers.
± marks the error that the study gave.

Structure (SMILES) | cell line | assay | conditions | IC50
CC(C)Cc1ccc(C(C)C(=O)[O][Pt]([NH2])([NH2])([Cl])([Cl])[O]C(=O)C(Cl)Cl)cc1 (stereo not drawn) | BCPAP | cell growth or viability, MTT | 72 h | 0.14 µM
CC(C)c1cccc(C(C)C)c1-n1c2c([n+](-c3c(C(C)C)cccc3C(C)C)[c]1[Cu-][Cl])-c1cccc3cccc-2c13 | 2008 | cell growth, MTT | 72 h | 7 ± 1 µM
CCCC(CCC)C(=O)NCCNC(=O)[C@@]1(C)[C@H](O)CC[C@@]2(C)[C@H]1CC[C@]1(C)[C@@H]2C(=O)C=C2[C@@H]3[C@@H](C)[C@H](C)CC[C@]3(C)CC[C@]21C | HBE | cell growth or viability, MTT | 48 h | 13.8 µM
CC(C)C1OC(=O)C(NC(=O)c2cccc(O)c2)C(C)OC(=O)C(C(C)C)OC(=O)C(C)(C)C(=O)C(Cc2ccccc2)OC1=O (stereo not drawn) | HCT-8/T taxol-resistant | cell viability, CCK-8 | 72 h | > 20 µM
COC(=O)[C@H]1[C@H]2C[C@H]3O[C@@]4(CCN3C[C@H]2C[C@@H](OC(=O)c2cc(OC)c(OC)c(OC)c2)[C@@H]1OC)C(=O)Nc1cc(OC)c(-c2ccc(C(F)(F)F)cc2)cc14 | RS4-11 | cell growth or viability, trypan blue | 72 h | 1.95 µM
CCCC(CCC)C(=O)[O][Pt]([NH2])([NH2])([Cl])([Cl])[O]C(=O)C(Cl)Cl | LoVo | cell growth or viability, MTT | 72 h | 0.757 µM
COc1ccc2cc3[n+](cc2c1OCc1cn(Cc2ccc([N+](=O)[O-])cc2)nn1)CCc1cc2c(cc1-3)OCO2 | SW1990 | cell growth or viability, MTT | – | 54.2 µM
CC(C)c1cccc(C(C)C)c1-n1c(Cl)c(Cl)n(-c2c(C(C)C)cccc2C(C)C)c1=[Se].[Cl][Au] | human ovarian cancer cells | cell viability, MTT | 72 h | 1.4 ± 0.2 µM
C=CC(OC(C)=O)c1cc(OC)c(OC(C)=O)c(OC)c1 (stereo not drawn) | HSC-4 | MTT | 24 h | > 50 µM
CC1(C)CCC(CN2CCN(c3ccc(C(=O)NS(=O)(=O)c4ccc(NCC5COCCO5)c([N+](=O)[O-])c4)c(N4CCCOc5nc6[nH]ccc6cc54)c3)CC2)=C(c2ccc(Cl)cc2)C1 (stereo not drawn) | RS4-11 | cell growth or viability, ATP luminescence | 24 h | 5e-05 µM
CC1=C2[O][Ru-]([Cl])[O+]=C2C=CN1CCCCCCN1C=CC2=[O+][Ru-]([Cl])[O]C2=C1C.Cc1ccc(C(C)C)cc1.Cc1ccc(C(C)C)cc1 | SISO | cell growth or viability, crystal violet | 96 h | 9.5 µM
N=C(N/N=C/c1cc2ccccc2c2ccccc12)N/N=C/c1cc2ccccc2c2ccccc12 | KP-4 | cell growth or viability, crystal violet | 72 h | 139 µM
O=C(c1ccncc1)N1N=C2/C(=C/c3ccc(Br)cc3)CCCC2C1c1ccc(Br)cc1 (stereo not drawn) | human erythrocytes | membrane protection, HRBC membrane stabilization | – | 0.075 µM
C#CCOc1ccc(C(=O)c2ccc(NC(=O)C(=O)NCCc3ccc(O)cc3)cc2)cc1 | NCI-H1993 | cell growth or viability | – | 0.05 µM
CC(=O)O[C@@H]1CC[C@@]2(C)[C@@H](CC[C@]3(C)[C@@H]2C(=O)C=C2[C@@H]4[C@@H](C)[C@H](C)CC[C@]4(C)CC[C@]23C)[C@@]1(C)C(=O)NCCNC(=O)c1ccc(C)cc1 | HBE | cell growth or viability, MTT | 48 h | 5 µM
C=C1C(=O)[C@@]23CC[C@@H]4[C@](C)(COC(C)=O)CCC[C@@]4(CO)[C@@H]2[C@@H](O)C[C@@H]1C3 | HBE | cell growth or viability, MTT | – | 15 µM
C=C1C2CCC3(CCC4C5(C)CCCC4(CN(CCO)C5)C3C2)C1O (stereo not drawn) | HBE | cell growth or viability, MTT | – | 21.6 µM
OC[C@H]1[C@@H](O)[C@@H](O)CN1Cc1ccc(Br)cc1 | U2OS | cell growth or viability, MTS | 72 h | 189 µM

Structure (SMILES) | cell line | assay | conditions | IC50
C#Cc1cccc2cc(O)cc(-c3ncc4c(N5CC6CCC(C5)N6)nc(OCC56CCCN5CCC6)nc4c3F)c12 | SW1990 | cell growth or viability, ATP luminescence | – | 0.07 µM
Cc1cc(N)c2cc(NC(=O)COCC(=O)Nc3ccc4nc(C)cc(N)c4c3)ccc2n1 | CHO wild type | FGF2 binding to heparan sulfate, inhibitor, flow cytometry | on ice, together with: biotinylated FGF2 2.5 nM | 0.7 ± 0.12 µM
Cc1nc2ccccc2c(=O)n1N | LoVo | cytotoxicity, LDH release | 24 h, 50% viability reduction | 340 ± 12.1 µM
Cc1cc(C=O)cc(C)c1Oc1cc(Nc2ccc(C#N)cn2)nc2cnccc12 | HuCC-A1 | – | 48 h | > 126 µM
Cc1ccc(C(=O)NCCNC(=O)[C@@]2(C)[C@H](O)CC[C@@]3(C)[C@H]2CC[C@]2(C)[C@@H]3C(=O)C=C3[C@@H]4[C@@H](C)[C@H](C)CC[C@]4(C)CC[C@]32C)cc1 | HBE | cell growth or viability, MTT | 48 h | 5.74 µM
Cn1cc(-c2cc(N3CCCCS3(=O)=O)ccc2N[C@H]2CC[C@H](C)CC2)c2cc[nH]c2c1=O (stereo in doubt) | Light2 cells expressing SMO^D473H | GLI-luciferase reporter, inhibitor, refers to: SMO^D473H | – | 0.00053 µM
Cc1cnc(Nc2cc(C)c(C)c(C)c2)nc1Nc1ccc2oc(=O)[nH]c2c1 | human CD4+ T cells | STAT6 phosphorylation, flow cytometry | together with: IL-4 | 0.0214 µM
Cc1ccc(-c2nn(-c3ccccc3)cc2/C=C(\C#N)c2nc3ccccc3[nH]2)cc1 | SW1990 | cell growth or viability, ATP luminescence | 72 h | > 100 µM
CC(=O)O[C@@H]1CC[C@@]2(C)[C@@H](CC[C@]3(C)[C@@H]2C(=O)C=C2[C@@H]4[C@@H](C)[C@H](C)CC[C@]4(C)CC[C@]23C)[C@@]1(C)C(=O)NCCNC(=O)CCCCCCCBr | HBE | cell growth or viability, MTT | 48 h | 22.5 µM
Nc1ccc(/C=C/C(=O)N2CCc3c(oc4c(-c5ccc(F)cc5)cc(-c5ccc(NC(=O)[C@@H]6CCCO6)nn5)cc34)C2)cn1 | U2OS | cell growth or viability, CCK-8 | 72 h | ~3 µM
CCOP(=O)(OCC)C(Cc1ccccc1F)Nc1ccccc1 (stereo not drawn) | U-118-MG | cell growth or viability, MTT | 48 h | 86.8 µM
COc1ccc2cc3[n+](cc2c1OCc1cn(Cc2ccccc2)nn1)CCc1cc2c(cc1-3)OCO2 | SW1990 | cell growth or viability, MTT | – | 28.6 µM
CCOP(=O)(OCC)C(Cc1ccc(F)cc1)Nc1ccc(Cl)cc1 (stereo not drawn) | U-118-MG | cell growth or viability, MTT | 48 h | 88.2 µM
CC(C)c1cccc(C(C)C)c1N1CCN(c2c(C(C)C)cccc2C(C)C)C1=[Se].[Cl][Ag] | human ovarian cancer cells | cell viability, MTT | 72 h | 3.5 ± 0.8 µM
N[C@@H](CCC(=O)N[C@@H](CS[Se]Cc1ccc(-c2cc(C(F)(F)F)nn2-c2ccc(S(N)(=O)=O)cc2)cc1)C(=O)NCC(=O)O)C(=O)O | WM35 melanoma cells | cell viability, MTS | 72 h, radial stage | 2.7 ± 0.4 µM
CCCCCCCCC=CCCCCCCCC(=O)OCC1OC(n2ccc(N)nc2=O)C(F)(F)C1O (stereo not drawn) | MOLT-4 | cell growth or viability | – | 0.028 µM
Cc1cc(C=O)cc(C)c1Oc1cc(Nc2ccc(C#N)cc2)nc2cnccc12 | HuCC-A1 | – | 48 h | > 127 µM
CC(=O)Oc1ccccc1C(=O)[O][Pt]([NH2])([NH2])([Cl])([Cl])[O]C(=O)C(Cl)Cl | LoVo | cell growth or viability, MTT | 72 h | 0.755 µM

A few entries again:
Structure (SMILES) | cell line | assay | conditions | IC50
Cc1cc(N)c2cc(NC(=O)COCC(=O)Nc3ccc4nc(C)cc(N)c4c3)ccc2n1 | CHO wild type | FGF2 binding to heparan sulfate, inhibitor, flow cytometry | on ice, together with: biotinylated FGF2 2.5 nM | 0.7 ± 0.12 µM
O=C(c1ccncc1)N1N=C2/C(=C/c3ccc(Br)cc3)CCCC2C1c1ccc(Br)cc1 (stereo not drawn) | human erythrocytes | membrane protection, HRBC membrane stabilization | – | 0.075 µM
CC(C)c1cccc(C(C)C)c1-n1c(Cl)c(Cl)n(-c2c(C(C)C)cccc2C(C)C)c1=[Se].[Cl][Au] | human ovarian cancer cells | cell viability, MTT | 72 h | 1.4 ± 0.2 µM
